Results pooled from the literature.
Numbered parts are unrelated; each lists some results of a single study.

Study 1
Target: Interferon regulatory factor 7, full length, phosphomimetic (IRF7, Homo sapiens, UniProt Q92985, residues 1-503, S101K/S471D/S472D/S475D/S476D/S477D/S483D/S484D/S487D)
Sequence of UniProt Q92985 (whole entry, unmodified, looked up): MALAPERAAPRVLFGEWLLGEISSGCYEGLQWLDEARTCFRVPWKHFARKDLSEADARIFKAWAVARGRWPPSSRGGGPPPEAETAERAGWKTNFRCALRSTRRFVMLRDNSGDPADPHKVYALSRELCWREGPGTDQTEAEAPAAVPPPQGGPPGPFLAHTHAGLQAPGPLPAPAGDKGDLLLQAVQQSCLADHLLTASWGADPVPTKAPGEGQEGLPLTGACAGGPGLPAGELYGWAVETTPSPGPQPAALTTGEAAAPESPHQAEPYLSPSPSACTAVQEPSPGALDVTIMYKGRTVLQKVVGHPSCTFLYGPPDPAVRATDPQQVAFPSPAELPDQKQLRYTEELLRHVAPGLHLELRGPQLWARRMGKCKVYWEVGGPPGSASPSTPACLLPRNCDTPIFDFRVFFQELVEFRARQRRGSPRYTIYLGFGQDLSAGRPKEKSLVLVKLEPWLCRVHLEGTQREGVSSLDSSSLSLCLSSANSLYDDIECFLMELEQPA
Method: protein-binding microarray
Molecule type: double-stranded DNA, one strand shown
Medium: in vitro
Concentration: 250 nM
Notes: 60-bp whole probe
Added: salmon DNA 0.4 mg/ml
Baseline: random background probes
Direction: higher = stronger binding
Quantity: log fluorescence
Constant ends, left off below: GCCTAGCAC … GTCTTGATTCGCTTGACGCTGCTG
TTAGGTTTCGGGTATCGTTTAGTGCTA: 8.3 z-score
TTAGATCTCAGTCTCGATAAGTGCTAG: 0.503 z-score
AGGAATCTTGAGTTAGAGACGTGCTAG: -0.246 z-score
GAGGGTTTCCTTTTCCTGACGTGCTAG: 4.72 z-score
TGAGGTTTCGACTATCGGTTAGTGCTA: 4.79 z-score
AATTTTTTTTCTAACTAAAAGTGCTAG: 0.549 z-score
GTCGGTTTCGGACTGGGGACGTGCTAG: 5.13 z-score
AGGGTCTTCAGGTTCTCCCCGTGCTAG: -0.167 z-score
GACGAGTTCAGTTCCGAGACGTGCTAG: 0.418 z-score
TCACAGCTGTTTTTCTCACTGTGCTAG: -0.184 z-score
GACGGAGTGGGTCTCGGGACGTGCTAG: -0.555 z-score
TTAGGTTTCCTGATCCTTTAGTGCTAG: 1.11 z-score

Study 2
Target: Sal-like protein 4, full length isoform B (SALL4, Homo sapiens, UniProt Q9UJQ4-2, residues 1-616)
Method: universal PBM
Molecule type: double-stranded DNA, one strand shown
Medium: in vitro
Concentration: not given
Notes: 8-mer, flanks averaged, mean of replicates
Direction: higher = stronger binding
Quantity: E-score
AGGGTTAT: 0.197
CTAGAGTA: -0.0232
AGCCGTTG: -0.0306
AAATCGGG: 0.0334
CTGTGGCA: -0.101
GGACGGCA: -0.203
CGTACCAC: -0.027
ATTCTAAA: 0.281
CGGAATAC: 0.00108
CCACTCAG: -0.0929
ACAGCCCG: -0.284
CGGGTAAC: -0.185
AGTAAAAC: 0.244
GCGGGCAA: -0.22
ATGCAGTG: -0.0653
CGGTAGTA: 0.105
CCGGGCTA: -0.421

Study 3
Target: RNA binding protein fox-1 homolog 2, RRM domain, GST-SBP tag (RBFOX2, Homo sapiens, UniProt O43251-10, residues 100-194)
Method: RNA Bind-n-Seq
Molecule type: RNA
Medium: in vitro
Concentration: 365 nM
Notes: natural RNA segment, single round, ends assumed
Baseline: no-protein control
Direction: higher = stronger binding
Quantity: RBNS enrichment (R)
Constant ends, left off below: GGGAGUUCUACAGUCCGACGAUC … UGGAAUUCUCGGGUGCCAA
Residues (chain): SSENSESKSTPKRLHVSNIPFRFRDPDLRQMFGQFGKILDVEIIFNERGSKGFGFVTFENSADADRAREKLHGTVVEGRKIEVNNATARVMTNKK
UUGUGUCUGUGUAUAUACUGUGCCUUUUCUCCUUGUCGAGGGGUGGGAGGGGUUGGUUUUUCACUGAACAGGGGAUAUGCCUAUGUCUUCAUCAGUGUUGAAACAUUCAC: 0.336
UAGUUCCCGCGACAUUCCGCCUUCCUCCGUUAGCCCCUUGGUAAUCCACCACCAAGCCUGGGGACUUCGCCCCAACAAAAUUGUAAACGUUGUUAGGUUUUCGUGUAAGA: 0.383
GUGGUGGCCUGGGCUGCUGAUGGAGGGGAAGCACCAGUAUCUAGGUGUCUUUGGUAGGGGUGUAUUUUUAUUACACAGAGUUUUUGAACAUAUAGGGACCCCACCAAGAG: 0.814
AGCAGAGUGAGGAUUCCUGCCUUUCGUAGAGUUUUGUGUGACUUUUUAAAUUAUUCAUGUGUCCCUUAAAAGUUUCACUACGUGGAGAAAAUUCCAGCACCAAGUGUUGU: 1.36
CGGCCUACACUCUCCAACACAAUCCAGAGGCCACAACUAGGUCCCACAGCUAAUUUACCCCUGGAGAUGGGCUCAGGACAGCUGCCUACCCUAGUCUCACCAAUCGUGGA: 0.451
CCUGACGGAGCCCCUGGAGGUGGAGCACGUGGUGGGCCAGGGUGUCCUCCACCGUGGCGGCCAGCUGCAUGGAGCCCGGCCCUUGGGCACUGGUGAGCGUUGGAACCUUG: 0.497
CACUGUAGCUGUCUUCAGACACACUAGAAGAGGGCAUCAGAUUCCAUUACAGAUGGUUGUGAGCCGCCAUGUGGUUGCUGGGAGUAGAACUCAGGACCUCUGGGAAAGCA: 7.47
GUCAGGCUUUGUGUUAUUUUAAAUGGUUUUUUAAAAUUUUCUUCUAUGUUUUCAAUUACCUAAAGACAUAGGAUAAUAGUUUUUUUUAAGUUAGAAUUUUACCUCAUAAA: 0.757

Study 4
Target: RING finger protein unkempt homolog, zinc fingers 1-6, GST-SBP tag (UNK, Homo sapiens, UniProt Q9C0B0, residues 30-357)
Sequence of UniProt Q9C0B0 (30-357, looked up): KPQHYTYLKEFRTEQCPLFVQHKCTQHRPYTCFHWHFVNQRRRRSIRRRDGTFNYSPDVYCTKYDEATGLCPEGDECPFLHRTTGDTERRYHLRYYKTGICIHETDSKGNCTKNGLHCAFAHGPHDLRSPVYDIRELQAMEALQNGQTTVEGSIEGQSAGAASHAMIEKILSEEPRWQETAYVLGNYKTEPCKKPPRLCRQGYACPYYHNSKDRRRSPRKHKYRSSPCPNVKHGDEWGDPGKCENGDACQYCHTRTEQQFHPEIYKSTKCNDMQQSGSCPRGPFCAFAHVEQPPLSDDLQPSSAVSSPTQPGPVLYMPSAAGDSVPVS
Method: RNA Bind-n-Seq
Molecule type: RNA
Medium: in vitro
Concentration: not given
Notes: RNA with constant flanks, human and mouse sites, ends assumed
Baseline: input RNA pool
Direction: higher = stronger binding
Quantity: bound/input enrichment
Constant ends, left off below: GGGAGUUCUACAGUCCGACGAUC … CAACAGAGGAUUGAGCAUCA
GAUGAAGUGGAGAAGUACAACCGAAAUGGAGUCAAUGCUCUGCAGCUGGAUCCAGCACUAAAUAGACUUUUCACAGCCGGUCGAGACUCUAUCAUAAGAAUAUGGAGUGUCAAUCAGCAC: 0.132 ratio
UUCUUAAUUUUUCUUUCUUACAAAAACUGAUUUUUCCCAUAAAUAUUUUUACUUCAGAGGACUAGGACCAUUUUGUUUUGGGCCCUUCUGCUGAAAAUUUGUCUCGUUUAAGAGGCAGCU: 3.85 ratio
AAGGAAGCACGCAAGCGCCGUGAAGAGCGCCUCCAGGCCAAGAAGGAGGAGAUCAUCAAGACUUUAUCCAAGGAGGAAGAGACCAAGAAAUAAAACCUCCCACUUUGUCUGUACAUACUG: 0.107 ratio
AUUUUGGUUUGGUUUGGUUUUUGAAGUUAUGUGAUAUUUCACAUUUAAAUCUUUUUUCUUUUUUACAUGUUUUCUCUUGUGCAUCAAUUUAAAUGUUACAACCAUGUAAACUACUUCUCU: 0.426 ratio
GGAAGGGUGGUAUGUGUUUUCAUCUUUGGAAGAGAAAAUUAAAUUGGAAUUAUUUUCUAGAAAUUUUGAGAAGUCCACUCAAUUUUCCUGGGAGAGAGUGCUCACUGUGUGAAAGUACAU: 0.456 ratio
GAUAAAGACCCCAACAAGAAGAUGAAACGAAACUUAAGGAAAAUUCUGGAUAGUAAAGCAAUAGACCUUAUGAAUGCACUAAUGAGGCUAAAUCAGAUCAGGCCUGGGCUUCAGUAUAAG: 0.643 ratio
GGGGCUGAUUUUUAUUUCUUUGGGGGCUUUUUUUCUUGGCAAAUACUAAAAAUCUCGUCAAUGUAAUUUCUGUGGUUUCUAUUCAGCUUGGGUUUCAUGUUUUAAAAUAAAUUUUAAAAA: 0.868 ratio
CAGCUGCUUACACAGGAUGUAGAAAAAUUUUGUAACAGUGUAGUCGAUCUGUAUUCAAAUCUUAGUAAGCCAUUUUUAGACAUAGUUUUAUAUAUUUUCAAGUUAACAAGUGCAAUUGGA: 223 ratio

Excerpt of the above (study 1):
GTCGGTTTCGGACTGGGGACGTGCTAG: 5.13 z-score
AGGAATCTTGAGTTAGAGACGTGCTAG: -0.246 z-score
TTAGATCTCAGTCTCGATAAGTGCTAG: 0.503 z-score
GAGGGTTTCCTTTTCCTGACGTGCTAG: 4.72 z-score
GACGAGTTCAGTTCCGAGACGTGCTAG: 0.418 z-score
